Measured values gathered from unrelated publications.
Parts stem from different laboratories: compare values within a part only.

Study 1
Target: RNA binding protein fox-1 homolog 2, RRM domain, GST-SBP tag (RBFOX2, Homo sapiens, UniProt O43251-10, residues 100-194)
Technique: RNA Bind-n-Seq
Form: RNA
Medium: in vitro
Tested at: 365 nM
Setting: natural RNA segment, single round, ends assumed
Baseline: no-protein control
Reading: higher = stronger binding
Quantity: RBNS enrichment (R)
Constant ends, left off below: GGGAGUUCUACAGUCCGACGAUC … UGGAAUUCUCGGGUGCCAA
Construct (chain): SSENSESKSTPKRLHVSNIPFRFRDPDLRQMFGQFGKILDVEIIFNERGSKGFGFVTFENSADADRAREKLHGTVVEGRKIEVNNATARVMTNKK
CCUGCCGAGCGGCUGCUGGAGUCUGGAGCCAUCGCAUUGCGGGUGUAGCAGCGCAUCAGGCUUGAGAUGCCAGGGGUUUGAUACAGGCGUGGAAUCACUUUCCAGGCCAG: 0.33
GCUGAUCCUCAGGGGCCACUCCCCCAACACCCCUGUACUUGGGUGAGGGAUGUUGGACAGAGCCUGUUUUCAUGUACUGCAGGUGGGGGUGUGCUGACAUGUUUGCUCUU: 0.4
GAUAGGGCUGGGGUGGGCAGAGUCUGAACACUCCAGCAUUCUACUACCUUGCACUGUGGGGGCAGGGAGAAAGUCACCAUGGCCAGAGAAAGGUAGUGGUCACUGGGUCU: 0.361
ACAGUACUCCUCGCUGCAGGGCACUGUCCCACCGGGAUCCAGUUGCAAAGUUUGUCUUGACAGUUGAAGGCCUCGCUUAGUUGUACUGGAUUCUCAGGGAGCCCUCUGUG: 0.308
AAUCAAGGACAAUGAAGCCUCACCAAUAUAUUUCUUGUGGUGCUGGGAUCAAACCCAGGACAGCAUUCAUCCUAGGCAAAUGCUGGACCAUACCCUCAGCCCAUCACCAA: 0.24
UUAUUUAAGUAUGGAAUAUUCAUUUUACUCAGAAUAGCUGUUUUGUGUAUAUUGGUGUAUAUUAUAUAACUCUUUGAGCCUUUAUUGGUAAAUUCUGGUAUACAUUGAAU: 0.455
CUGAGGUGCAAAGAAUGCACUUUUCCCUAUGGGGCCCAGAGUUUGCCUUUUCUGCCAGGCAGUCACCAUGCUUCCCUACCCCAGCCUGUUUCUUUUGGCUUGGUUUGGAC: 0.914
UCUACCCGGGAAGGAACAUAUGACGACAUGCUCCUCCCAUGUCCCCUGAUGGUGUCUGUUCCCACAAUAUCCUUCUAGUCUGCAUCGUGAAGUGGCUUAGGCCAAAGCUU: 1.75
GGAGACCUUGACAGAGUGGUCAGCUGGAUCAGUGUGCCCUAAACUAAGUAAAAUCAUUGUUCCAUUCUUAUACAUUUGAAUGUGAUGGUGACCUUUGAAACAAUUCCAGG: 0.526
GCUGCCCCACAGUGCUUGACCUCUGAGUCAUUGGUUAUACAGUGUAGUCCCAAGCACAUAAACUAGGAAGAGAAUGUAUUUGUAGGAGCGCUACCACCUGUUUUCAAGAG: 0.52
UUGCAAUUUGCUUUGAGACCUUCCCUGUCCUGGGUACUAGGUGCUAUGAAGCCAGCUGACAGAAGCAUCACAUGUCUUGGGCUGAUGCCGCUACCCGGUUCAUUUAUUUG: 1.24
UGUUUUGGUUGUUUUCUUAAAAAACAAGUUAAAACCUGACGAUUUCUGCAGGCUGUGUAAGCAUGUUUACCUGUUGGCUUGCUUUGUGUGUCUGUUAAAUGAAUGUCAUA: 7.84

Study 2
Target: Phosphate system positive regulatory protein PHO4, full length, GST-tagged (PHO4, Saccharomyces cerevisiae, UniProt P07270, residues 1-312)
Technique: competition protein-binding microarray
Form: double-stranded DNA, one strand shown
Medium: in vitro
Tested at: 2 µM
Setting: whole 60-bp probe, lowest competitor level
With: Cbf1 competitor, 0.05 µM
Reading: higher = stronger binding
Quantity: fluorescence intensity
Constant ends, left off below: … GTCTTGATTCGCTTGACGCTGCTG
Construct (chain): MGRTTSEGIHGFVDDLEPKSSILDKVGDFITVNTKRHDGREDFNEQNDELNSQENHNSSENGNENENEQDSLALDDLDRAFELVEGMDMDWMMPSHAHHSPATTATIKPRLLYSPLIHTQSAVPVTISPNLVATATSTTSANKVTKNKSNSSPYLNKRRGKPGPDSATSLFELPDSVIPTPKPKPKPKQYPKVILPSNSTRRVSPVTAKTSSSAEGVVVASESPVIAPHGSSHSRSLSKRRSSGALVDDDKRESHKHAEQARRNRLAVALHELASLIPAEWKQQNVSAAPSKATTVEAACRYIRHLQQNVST
GACCGTCAAAGCGTCCACATGAGATCCAATGACACC: 5720 a.u.
AAGCATCCTTGTTTGCACGGGATGCCCTGCACAGTA: 8060 a.u.
AAATTACTAAGTTGTGAGGTGGGTGACGCCGTATGA: 4430 a.u.
ATTACTAAAGCCTCTCATGTGTTCTACGCCCATTGT: 6990 a.u.
CAGGGATCAGGGCACCACGTGGGGGAAGGACTGTGT: 20900 a.u.
GCGCAATACGTTAAGCTCGTGCTTTAGGTTTCGCCG: 11500 a.u.
CATACCCAACCTTGCGGTGTGGGTGAAGATATTTGT: 5300 a.u.
AATGAAGACCGGGAATTCGTGCCGAGTTCGAGTTTG: 5270 a.u.
GGCTCGCGCTAGAATCGTGTGCAGCAGCTCCACATC: 6280 a.u.
CCTCACTCTTTTCCTCTCGTGACGGATTCAACATCA: 6090 a.u.
AAGCTGAAGTATGGTGTCGTGACTCGGATTTCCGCT: 4800 a.u.
GACCTTATCAAAAAGCACGCTGCCGGCCAAGAAGTG: 8530 a.u.
AAATTACTAAGTTGCAACGTGGGTGACGCCGTATGA: 14400 a.u.
TGTATCCTATACAATCACGGGCGACGGACAAGACCC: 4860 a.u.
CGAAATGGCACTGACCATGCGGAGCCAGCGCCGGAA: 5690 a.u.
TCTAGTAGGTGCGCCAGCGTGCGATGATGTGATGAG: 9830 a.u.
CCTTGAGGAGAACTTCTAGTATATCTACATACCTAA: 3310 a.u.
CCTTAACGCAATCGGTGTGTGATATTGCTCTAAGGT: 5730 a.u.
CTTTCCCGATCTTGTGGCGTGGGTGTAGCACATTTG: 7540 a.u.
AGCGGCACATAATGCAGCGTGCGGAAGTGTCAGTAG: 9360 a.u.
AAATTACTAAGTTGAGGGGTGGGTGACGCCGTATGA: 4590 a.u.
TTCCGTCTTGGGAGTCAGGTGGAAGTAACCTGCGGG: 3840 a.u.

Study 3
Target: Interferon regulatory factor 5, full length, phosphomimetic (IRF5, Homo sapiens, UniProt Q13568-2, residues 1-514, S451D/S453D/S456D/S462D)
Technique: protein-binding microarray
Form: double-stranded DNA, one strand shown
Medium: in vitro
Tested at: 940 nM top
Setting: 60-bp whole probe
With: salmon DNA 0.4 mg/ml
Baseline: random background probes
Reading: higher = stronger binding
Quantity: fitted relative affinity
Constant ends, left off below: GCCTAGCAC … GTCTTGATTCGCTTGACGCTGCTG
ATCATTTTCGTTTTTATTATGTGCTAG: 3.34 z-score
TTAGATGTCAGACTGGATTAGTGCTAG: -0.573 z-score
TTAGATTTCGGGTATCGATTAGTGCTA: 3.8 z-score
GACGATATAAGTATCGAGACGTGCTAG: 1.27 z-score
TCAACGAATTAGAAAGAGCAGTGCTAG: -0.377 z-score
TTAGGTTTCCTGATCCTTTAGTGCTAG: 0.49 z-score
GACGGACTGGGTCTCGGGATGTGCTAG: -0.0634 z-score
TTAGGTTTCGACACTGGTTTAGTGCTA: 8.26 z-score
TTTGGTATCGGTTTCGGTTAGTGCTAG: 15.3 z-score
GACGGTTTCCTTAACCTGACGTGCTAG: 0.545 z-score
TCATTTTCATTTTCCAAACTGTGCTAG: 2.51 z-score
TTAGGTTTCCTCCTGCTTTAGTGCTAG: 1.19 z-score
TTTCCTCTTTCTTTGCTTCAGTGCTAG: 2.84 z-score
GACGGTATCCGACTGCTGACGTGCTAG: -0.395 z-score
TCAATTTTCATTTTCCAACTGTGCTAG: 1.81 z-score
GACAAACTGAGACTGGAGACGTGCTAG: -0.195 z-score
GACGGTCCCCTTCTCCTGACGTGCTAG: 0.139 z-score
TTAGGTATCGGTCCCGGTTAGTGCTAG: 9 z-score
TTAGATTCCAGTCTCGATTAGTGCTAG: 3.5 z-score
GACGATATCGGGTATCGAAACGTGCTA: 1.83 z-score
TCAGATTTCGGGTATCGATTAGTGCTA: 3.38 z-score
GACGAACTGGGGTTTCGAGGCGTGCTA: 1.62 z-score
TTAGATTTCAGACTGGATTCGTGCTAG: 0.0252 z-score
TTAGATATCGGCTTTCGATTAGTGCTA: 1.63 z-score
TTAGAACTGGGGACTGGGTTAGTGCTA: -0.364 z-score

Study 4
Target: Sal-like protein 4, full length isoform B (SALL4, Homo sapiens, UniProt Q9UJQ4-2, residues 1-616)
Technique: universal PBM
Form: double-stranded DNA, one strand shown
Medium: in vitro
Tested at: not given
Setting: 8-mer, flanks averaged, mean of replicates
Reading: higher = stronger binding
Quantity: E-score
CAACGAAG: -0.0284
AACATTAG: 0.153
ATCCCTCG: -0.139
CACTTTCA: -0.00707
ACGCGATG: -0.0853
AATCATGT: 0.235
GATTGGTA: 0.134
AGGCTCAA: -0.0563
GGCCGCAA: -0.251
AGTTATTG: 0.313
CCACGCCA: -0.105
CAAGAGCA: -0.0382
AACAACTT: 0.132
AGAGCCCC: -0.31
TGGGTGAA: 0.191
GAGCCAGC: -0.214
CAGAAGAG: -0.0729
TGGAGACA: 0.0103
ACTTATCC: 0.133

For quick reference, copied from above (study 4):
CAACGAAG: -0.0284
TGGGTGAA: 0.191
AACATTAG: 0.153
AATCATGT: 0.235
GAGCCAGC: -0.214
CAAGAGCA: -0.0382
AGTTATTG: 0.313
GATTGGTA: 0.134
GGCCGCAA: -0.251
CACTTTCA: -0.00707
AGGCTCAA: -0.0563
